Results pooled from the literature.
Compare with care: the assays were run in different laboratories. Numbers after ± are the reported error.

`CC[C@H](C)[C@H](NC(=O)[C@H](CC(C)C)NC(=O)[C@@H](NC(=O)[C@@H](NC(=O)[C@H](CC(C)C)NC(=O)[C@H](CCCCN)NC(=O)[C@@H](N)CCCCN)[C@@H](C)CC)[C@@H](C)O)C(=O)N[C@@H](Cc1ccccc1)C(=O)N[C@@H](CCCCN)C(=O)N[C@@H](CCCCN)C(=O)N[C@H](C(=O)N[C@@H](CCCNC(=N)N)C(=O)N[C@@H](CCC(=O)O)C(=O)N[C@@H](CCCCN)C(=O)N[C@@H](CCCCN)C(=O)N[C@@H](CCCCN)C(=O)N[C@@H](CCC(=O)O)C(=O)N[C@@H](CS)C(=O)N[C@@H](CC(C)C)C(=O)N[C@H](C(=O)O)C(C)C)[C@@H](C)O`: “unblocking rate constant” 1330 s⁻¹ (TTX-sensitive sodium channel; open-channel blocker, kinetic model fit; mouse hippocampal CA3 neurons; 200 µM intracellular, membrane potential -30 mV).
For `Oc1c(Cl)cc(Cl)c2cccnc12`, the MIC was 37.4 µM (Corynebacterium diphtheriae; agar dilution; NCTC 10356).
`CC(=O)NCCN(CCC(=O)NCCN(CCC(=O)NCCN(CCC(=O)NCCC(N)=O)C(=O)[C@@H](N)CCCNC(=N)N)C(=O)[C@@H](N)CCCCN)C(=O)[C@@H](N)Cc1ccccc1` — result for “binding entropy term TΔS°”: -7.53 ± 0.263 kcal/mol (HIV-1 TAR RNA; concentration not given, 25 °C).
The IC50 of `CNCc1ccc2c(c1)N(C(=O)OCc1c(F)c(F)c(F)c(F)c1F)[C@H](CNC(=N)N)[C@H]2NC(=O)C(=O)Nc1ccc(Cl)c(F)c1` is reported as 3610 nM (Human immunodeficiency virus 1; viral infection, Env pseudovirus; TZM-bl, ZM53M.PB12 clade C).
`C[C@H](Nc1ncnc(N)c1C#N)c1c(-c2ccccc2)[nH]c2c(Cl)cccc2c1=O` gave an IC50 of 4790 nM (GCB DLBCL cell lines; cell proliferation, CellTiter-Glo; 72 h, median over cell lines).
For `F[P-](F)(F)(F)(F)F.OC(Cn1cncn1)(Cn1cc(-[c-]2cccc2)nn1)c1ccc(F)cc1F.[Co+3].c1cc[cH-]c1` (racemic), the inhibition was 29% (Brugia pahangi; motility, Worminator; adult female; 50 µM, 0 d).
For `CO[C@H]1O[C@H](COC(c2ccccc2)(c2ccccc2)c2ccccc2)[C@@H](OS(=O)(=O)c2ccccc2)[C@H](OS(=O)(=O)c2ccccc2)[C@H]1OS(=O)(=O)c1ccccc1`, the inhibition was 67.92 ± 0.46% (Aspergillus niger; mycelial growth, poisoned food technique; 20 µg/µL, DMSO).
For `C=C1C[C@](OC)([C@H](O)C(=O)NC[C@@H]2C[C@@H](OC)C(C)(C)[C@@H](C[C@@H](COC)OC)O2)O[C@H](C)[C@@H]1C`, the IC50 was 0.9 ± 0.1 nM (Renca; cell viability, sulforhodamine B; 72 h, 37 °C, without H2O2).
With `CNCc1ccc2c(c1)C[C@H](CNC(=N)N)[C@H]2NC(=O)C(=O)Nc1ccc(Cl)c(F)c1` the IC80 was 1140 nM (Human immunodeficiency virus 1; viral infection, Env pseudovirus; TZM-bl, SC422661.8 clade B).
`CC(=O)NCCN(CC(=O)NCCN(CC(=O)NCCN(CC(=O)NCCC(N)=O)C(=O)[C@@H](N)Cc1ccccc1)C(=O)[C@@H](N)CCCNC(=N)N)C(=O)[C@@H](N)CCCNC(=N)N`: “binding entropy term TΔS°” -4.68 ± 0.12 kcal/mol (HIV-1 TAR RNA; concentration not given, 25 °C).
The MIC of `O=[N+]([O-])c1cccc(S(=O)(=O)NC[C@@H](O)[C@@H]2CCc3cc(F)ccc3O2)c1` is reported as 14.1 ± 0.72 µg/mL (Aspergillus niger; poison plate technique).
`CC[C@H](C)[C@H](NC(=O)[C@H](CC(C)C)NC(=O)[C@H](CCCCN)NC(=O)[C@@H](N)CCCCN)C(=O)N[C@H](C(=O)N[C@@H](Cc1ccccc1)C(=O)N[C@H](C(=O)N1CCC[C@H]1C(=O)N[C@@H](CCCCN)C(=O)N[C@@H](CCCCN)C(=O)N[C@H](C(=O)N[C@@H](CCCNC(=N)N)C(=O)N[C@@H](CCC(=O)O)C(=O)N[C@@H](CCCCN)C(=O)N[C@@H](CCCCN)C(=O)N[C@@H](CCCCN)C(=O)N[C@@H](CCC(=O)O)C(=O)N[C@@H](CS)C(=O)N[C@@H](CC(C)C)C(=O)N[C@H](C(=O)O)C(C)C)[C@@H](C)O)[C@@H](C)CC)[C@@H](C)O`: “unblocking rate constant” 4930 s⁻¹ (TTX-sensitive sodium channel; open-channel blocker, kinetic model fit; mouse hippocampal CA3 neurons; 200 µM intracellular, membrane potential -10 mV).
Under “log2 fold change”, `COC1CN([C@H]2CC[C@H]([C@@]3(C)Oc4c(Cl)cc(C(=O)NCc5c(SC)cc(C)[nH]c5=O)c(C)c4O3)CC2)C1` is recorded as 1.31 (RNA-seq, measured: MARVELD2; human, whole blood; dose not given, 24 h; baseline: pretreatment baseline).
Under “unblocking rate constant”, `CC[C@H](C)[C@H](NC(=O)[C@H](Cc1ccccc1)NC(=O)[C@@H](NC(=O)[C@@H](NC(=O)[C@H](CC(C)C)NC(=O)[C@H](CCCCN)NC(=O)[C@@H](N)CCCCN)[C@@H](C)CC)[C@@H](C)O)C(=O)N[C@@H](CC(C)C)C(=O)N[C@@H](CCCCN)C(=O)N[C@@H](CCCCN)C(=O)N[C@H](C(=O)N[C@@H](CCCNC(=N)N)C(=O)N[C@@H](CCC(=O)O)C(=O)N[C@@H](CCCCN)C(=O)N[C@@H](CCCCN)C(=O)N[C@@H](CCCCN)C(=O)N[C@@H](CCC(=O)O)C(=O)N[C@@H](CS)C(=O)N[C@@H](CC(C)C)C(=O)N[C@H](C(=O)O)C(C)C)[C@@H](C)O` is recorded as 742 s⁻¹ (TTX-sensitive sodium channel; open-channel blocker, kinetic model fit; mouse hippocampal CA3 neurons; 200 µM intracellular, membrane potential -10 mV).
With `CCCOC(=O)N1c2cc(CNC)ccc2[C@H](NC(=O)C(=O)Nc2ccc(Cl)c(F)c2)[C@H]1CNC(=N)N` the IC80 was 326 nM (Human immunodeficiency virus 1; viral infection, Env pseudovirus; TZM-bl, ZM197M.PB7 clade C).
For `COc1cc(C(=O)N/N=C/c2cccc3ccccc23)cc(OC)c1OC`, the IC50 was 138 nM (P12-Ichikawa; cell growth or viability, MTT; 48 h).

A few entries again:
`C[C@H](Nc1ncnc(N)c1C#N)c1c(-c2ccccc2)[nH]c2c(Cl)cccc2c1=O` gave an IC50 of 4790 nM (GCB DLBCL cell lines; cell proliferation, CellTiter-Glo; 72 h, median over cell lines).
For `F[P-](F)(F)(F)(F)F.OC(Cn1cncn1)(Cn1cc(-[c-]2cccc2)nn1)c1ccc(F)cc1F.[Co+3].c1cc[cH-]c1` (racemic), the inhibition was 29% (Brugia pahangi; motility, Worminator; adult female; 50 µM, 0 d).
